{"data": "Experimental data collected from several papers", "note": "Parts stem from different laboratories: compare values within a part only. Changes are numbered by the printed parent chain."}
{"data": "Set 1", "target": "Hepatocyte nuclear factor 3-alpha (Foxa1, Mus musculus, UniProt P35582, residues 1-468, full length assumed)", "technique": "EMSA with sequencing", "form": "double-stranded DNA, one strand shown", "sample": "in vitro", "tested at": "10 and 20 nM", "setting": "whole designed probe, mean of two concentrations, ends assumed", "relative to": "negative control set to 0", "direction": "higher = stronger binding", "constant ends, left off below": "GTGAGCGGTGCCCATTGATGGGGAAC … TTTCACTGGGATCGTGGGGAC", "Residues (chain)": "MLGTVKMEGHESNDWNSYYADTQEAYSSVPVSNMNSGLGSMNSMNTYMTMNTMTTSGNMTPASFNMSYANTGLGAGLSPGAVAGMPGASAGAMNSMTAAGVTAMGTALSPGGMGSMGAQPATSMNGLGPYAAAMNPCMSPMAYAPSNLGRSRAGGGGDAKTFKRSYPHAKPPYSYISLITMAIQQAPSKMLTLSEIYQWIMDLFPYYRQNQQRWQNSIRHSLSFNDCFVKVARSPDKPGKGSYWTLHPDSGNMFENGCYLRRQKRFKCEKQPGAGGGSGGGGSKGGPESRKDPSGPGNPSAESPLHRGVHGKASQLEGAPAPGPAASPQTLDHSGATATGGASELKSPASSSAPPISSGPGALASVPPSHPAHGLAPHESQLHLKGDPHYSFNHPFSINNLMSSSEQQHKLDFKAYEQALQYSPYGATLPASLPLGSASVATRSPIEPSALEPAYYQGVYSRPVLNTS"}
{"Strand": "CTATTTGTGTATTTTTTCATGTGCTGTATCATATCCTGTGATCACTTTCCCAGATGGTTCCTCGTGTGTTCATACTTACATTTCCCCACTGATGTTTACATTGTCTTTCTATTTTTGTTTTCCTTACTTAAACAAAACAAAACAAAAGAATGCTTATTCTAATTTCATTTTTTCCTTCGATGTCTTATAAAAT", "normalised bound fraction [ratio]": 0.453}
{"Strand": "AAGCCTCCAGATAGAAGCCTCTGGGCTTCTTGCAGGAGTGACTTTGAGCAGAGCCATGATGTATACATGAACCATTAAGAAGCACATTCTCAGAGTAAACAGGGGTGCACAATATGAAATCTCATACTGATCACATATGCCAGTGTGATTGCAGGGTTTATTTTTAGGAGTTTCATTTGGGGATCTTTTTCCA", "normalised bound fraction [ratio]": 0.0599}
{"Strand": "CACACTCACCAAGTGCTTTTTCATCATGGCATCAAGGATCATGGAAACGTTACACCAGCCACTCTTTTCTGGAGCAATGTTGACCCATGTCTGGGCAAATAAGAAAGGTTTCGTATGAGTATGTCTGTTCAAATAAATCCTAACTTTCTCACTGGGAAGGAATGACTAGTTCCCACGACTCACAGGACACCAC", "normalised bound fraction [ratio]": 0.236}
{"Strand": "TGAAGTGGGAACCTGAGGGTCATCTGAGAATTTTCCCTACCCACCTGAATAGATTTCTAAAATCACCTTTCAGTTGCTTTTGCTGTCTTTCTAAGTAAACAAAGATATCATCTCCAAATAATAATTAATTGAACTGCTTTTCAATTGTATTCATTAAAATAATTATCTTTTTCTGGCTTATATGAAGTATTTC", "normalised bound fraction [ratio]": 0.479}
{"Strand": "TGCACCACTCAGCCCCTCCTAGTCCGCTGGAGAAAGTGGCTGAGGGGGTGGTGGGGGATAATTGCATTTCCAAAGTCCGGGCAATCAGCCAATGTAAACAGGCACCTGCGTCACTGTGTGGGCTCTCTAGGCAACAGGTAAAATACATCAAATACACACAATTTCCTGACATTCCAATGCATTTCTGCGTGAG", "normalised bound fraction [ratio]": 0.267}
{"Strand": "TGCTGCTTATTCATGAATTTTCAAATGGAAATATCTCTCCCATTATTATCCCCTTCTTGTGAGTCAGGCCCCATCTTGCAAATTTGCAGCTGAGTAAATATACGGAACATTAGCAGCAATTAGATAATTGGTGCCCCGGATCAGCCCACCCACAGCTGTGAATGAATATGGGCTGCATGAGTGTCACCTGGTG", "normalised bound fraction [ratio]": 0.339}
{"Strand": "ATGATCCTCCCTTTCTTCAGCTGTCCAATGGGTTAATCATCCCAAGTCCCCCAGCCTTGATGACAATCCAGGGGGCTGGGGTATATCTGCCATAGATTGCCTTTCCCTTGCTTCTCTCTGAGTGATTGGCAGACAGCAGGCCTCTGAATGCCATCCTCCCCAGCATTCTTGGCAAGGCGGCTGAAACTCCAGC", "normalised bound fraction [ratio]": -0.0671}
{"Strand": "GCAGTTCTGTGGTAGTGGGCATCAGTAAAGCTCTTCTCCAGGGCTAGGCTTCTCCTTATTTCTAGAGTGTCAGGGAAAAGGACTTCTTCAAAGTAATCTAGAAGTGCAATATTCACAAAGGACACATACATTCTCAGTGCTGTATTTGGCTGCAACTTCAGGGAGGTCAGATGGTCGTGCAGTTTACCACTGG", "normalised bound fraction [ratio]": -0.0814}
{"data": "Set 2", "target": "UBE2V2 UBC core domain (UniProt Q15819)", "technique": "yeast two-hybrid", "sample": "yeast", "setting": "mostly zero background", "relative to": "not given", "direction": "higher = stronger interaction", "B1": "RNF25 RING domain (UniProt Q96BH1); chain LTDNNIPHGQCVICLYGFQEKEAFTKTPCYHYFHCHCLARYIQHMEQELKAQGQEQEQERQHATTKQKAVGVQCPVCREPLVYDLASL", "B2": "TRIM69 RING domain (UniProt Q86WT6); chain VIQDITMELHCPLCNDWFRDPLMLSCGHNFCEACIQDFWRLQAKETFCPECKMLCQYNNCTF", "B3": "RC3H2 RING domain (UniProt Q9HBD1); chain QAAQWTEFLSCPICYNEFDENVHKPISLGCSHTVCKTCLNKLHRKACPFDQTAINTDIDVL", "B4": "ARK2C RING domain (UniProt Q6ZSG1); chain EGEESDTDEKCTICLSMLEDGEDVRRLPCMHLFHQLCVDQWLAMSKKCPICRVDIETQLGAD", "B5": "UHRF2 RING domain (UniProt Q96PU4); chain CGGDPEKKCHSCSCRVCGGKHEPNMQLLCDECNVAYHIYCLNPPLDKVPEEEYWYCPSCKTDSSEVVKAGER", "B6": "PHF21A RING domain (UniProt Q96BD5); chain SPTSTDGDIHEDFCSVCRKSGQLLMCDTCSRVYHLDCLDPPLKTIPKGMWICPRCQDQMLKKEEAIPW", "B7": "ZNF598 RING domain (UniProt Q86UK7); chain AAAPERGGGSCVLCCGDLEATALGRCDHPVCYRCSTKMRVLCEQRYCAVCREELRQVVFGK", "B8": "IRF2BPL RING domain (UniProt Q9H1B7); chain SPMANSGPLCCTICHERLEDTHFVQCPSVPSHKFCFPCSRESIKAQGATGEVYCPSGEKCPLVGSNVP", "Target sequence (chain)": "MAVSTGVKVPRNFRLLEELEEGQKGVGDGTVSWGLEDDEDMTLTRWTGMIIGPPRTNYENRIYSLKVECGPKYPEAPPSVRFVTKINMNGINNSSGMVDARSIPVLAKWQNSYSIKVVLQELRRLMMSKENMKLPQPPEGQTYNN"}
{"Molecule": "VTLSLTLPITCHICLGKVRQPVICINNHVFCSICIDLWLKNNSQCPACRVPITPENPCK (OBI1 RING domain (UniProt Q5W0B1))", "lacZ reporter activity": 0}
{"Molecule": "B1 (RNF25 RING domain)", "lacZ reporter activity": 0}
{"Molecule": "B2 (TRIM69 RING domain)", "lacZ reporter activity": 0}
{"Molecule": "B3 (RC3H2 RING domain)", "lacZ reporter activity": 0}
{"Molecule": "B4 (ARK2C RING domain)", "lacZ reporter activity": 0}
{"Molecule": "YWAMDSTFELCKICAESNKDVKIEPCGHLLCSCCLAAWQHSDSQTCPFCRCEIKGWEAVS (CBLC RING domain (UniProt Q9ULV8))", "lacZ reporter activity": 0}
{"Molecule": "QHHELTSLFECPVCFDYVLPPILQCQAGHLVCNQCRQKLSCCPTCRGALTPSIRNL (SIAH2 RING domain (UniProt O43255))", "lacZ reporter activity": 0}
{"Molecule": "B5 (UHRF2 RING domain)", "lacZ reporter activity": 0}
{"Molecule": "B6 (PHF21A RING domain)", "lacZ reporter activity": 0}
{"Molecule": "FASPPDSNFVCSVCHGVLKRPARLPCSHIFCKKCILRWLARQKTCPCCRKEVKRKKVVH (RNF151 RING domain (UniProt Q2KHN1))", "lacZ reporter activity": 0}
{"Molecule": "B7 (ZNF598 RING domain)", "lacZ reporter activity": 0}
{"Molecule": "DDENSDNSNECVVCLSDLRDTLILPCRHLCLCTSCADTLRYQANNCPICRLPFRALLQIR (MGRN1 RING domain (UniProt O60291))", "lacZ reporter activity": 0}
{"Molecule": "FPEHFVKSISCQICEHILADPVETNCKHVFCRVCILRCLKVMGSYCPSCRYPCFPTDLES (RAG1 RING domain (UniProt P15918))", "lacZ reporter activity": 0}
{"Molecule": "B8 (IRF2BPL RING domain)", "lacZ reporter activity": 0}
{"data": "Set 3", "target": "CCND2, cyclin fold, Cln2 fusion (human)", "technique": "yeast growth competition, sequencing", "sample": "yeast", "setting": "weak parent motif", "relative to": "not given", "direction": "higher = stronger binding", "starting sequence": "CDC25A docking peptide (human); PPHRRRLLFACSP"}
{"Variant": "R5H", "normalised enrichment score": 0.48}
{"Variant": "P13M", "normalised enrichment score": -0.0741}
{"Variant": "F9V", "normalised enrichment score": 0.284}
{"Variant": "R5F", "normalised enrichment score": -0.223}
{"Variant": "L8F", "normalised enrichment score": 0.237}
{"Variant": "F9E", "normalised enrichment score": 0.072}
{"Variant": "A10I", "normalised enrichment score": -0.374}
{"Variant": "P1F", "normalised enrichment score": -0.125}
{"Variant": "P2C", "normalised enrichment score": 0.256}
{"Variant": "P1W", "normalised enrichment score": -0.149}
{"Variant": "L7E", "normalised enrichment score": 0.0537}
{"Variant": "L7K", "normalised enrichment score": 0.444}
{"Variant": "S12T", "normalised enrichment score": 0.178}
{"Variant": "F9H", "normalised enrichment score": 0.162}
{"Variant": "P13G", "normalised enrichment score": 0.42}
{"Variant": "P13R", "normalised enrichment score": 0.045}
{"data": "Set 4", "target": "ABI1, truncated, D143A, DHFR fusion (Arabidopsis thaliana)", "technique": "DHFR PCA, deep sequencing", "sample": "yeast", "setting": "methotrexate growth selection, single substitutions", "with": "(+)-ABA 200 µM", "relative to": "wild-type fitted maximum", "direction": "higher = stronger binding", "starting sequence": "PYL1, truncated, DHFR fusion (Arabidopsis thaliana); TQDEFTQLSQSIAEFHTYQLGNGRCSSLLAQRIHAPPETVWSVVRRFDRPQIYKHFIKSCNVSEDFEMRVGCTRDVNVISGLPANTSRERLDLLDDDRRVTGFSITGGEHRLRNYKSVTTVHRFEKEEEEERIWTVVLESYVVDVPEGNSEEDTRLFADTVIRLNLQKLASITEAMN; partner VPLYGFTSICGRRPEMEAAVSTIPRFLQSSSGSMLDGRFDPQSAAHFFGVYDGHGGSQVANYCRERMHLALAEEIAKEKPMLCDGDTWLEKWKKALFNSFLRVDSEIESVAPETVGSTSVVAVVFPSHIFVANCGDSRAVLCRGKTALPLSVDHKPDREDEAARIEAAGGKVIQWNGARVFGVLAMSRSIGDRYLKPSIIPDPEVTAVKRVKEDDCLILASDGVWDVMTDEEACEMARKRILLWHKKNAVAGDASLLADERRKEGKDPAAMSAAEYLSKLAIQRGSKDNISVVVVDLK"}
{"Variant": "N77P", "relative binding score": "9.36%"}
{"Variant": "R99P", "relative binding score": "11.7%"}
{"Variant": "I12K", "relative binding score": "79.9%"}
{"Variant": "D97L", "relative binding score": "96.9%"}
{"Variant": "T101V", "relative binding score": "104%"}
{"Variant": "V118S", "relative binding score": "60.7%"}
{"Variant": "V62T", "relative binding score": "94%"}
{"Variant": "S171F", "relative binding score": "89.1%"}
{"Variant": "E131S", "relative binding score": "104%"}
{"Variant": "L94Y", "relative binding score": "100%"}
{"Variant": "V143K", "relative binding score": "-2.08%"}
{"Variant": "N77S", "relative binding score": "104%"}
{"Variant": "F15C", "relative binding score": "81.7%"}
{"Variant": "E14C", "relative binding score": "80.7%"}
{"Variant": "E125H", "relative binding score": "102%"}
{"Variant": "E4D", "relative binding score": "97.3%"}
{"Variant": "R90M", "relative binding score": "91.7%"}
{"Variant": "I172Q", "relative binding score": "70.5%"}
{"Variant": "R111A", "relative binding score": "54.7%"}
{"note": "For quick reference, copied from above (set 3):"}
{"Variant": "R5F", "normalised enrichment score": -0.223}
{"Variant": "A10I", "normalised enrichment score": -0.374}
{"Variant": "R5H", "normalised enrichment score": 0.48}
{"Variant": "L7K", "normalised enrichment score": 0.444}
{"Variant": "P13G", "normalised enrichment score": 0.42}
{"Variant": "L8F", "normalised enrichment score": 0.237}
{"Variant": "S12T", "normalised enrichment score": 0.178}
{"Variant": "P1W", "normalised enrichment score": -0.149}
{"Variant": "P2C", "normalised enrichment score": 0.256}
